Measurements collected from several papers.
Compare with care: the assays were run in different laboratories. ± marks the error that the study gave.
SNCA pre-formed fibrils: Alpha-synuclein, pre-formed fibrils (SNCA, Homo sapiens, UniProt P37840)
Urease: Urease (Canavalia ensiformis, UniProt P07374)
Chain of UniProt P07374 (whole entry, looked up): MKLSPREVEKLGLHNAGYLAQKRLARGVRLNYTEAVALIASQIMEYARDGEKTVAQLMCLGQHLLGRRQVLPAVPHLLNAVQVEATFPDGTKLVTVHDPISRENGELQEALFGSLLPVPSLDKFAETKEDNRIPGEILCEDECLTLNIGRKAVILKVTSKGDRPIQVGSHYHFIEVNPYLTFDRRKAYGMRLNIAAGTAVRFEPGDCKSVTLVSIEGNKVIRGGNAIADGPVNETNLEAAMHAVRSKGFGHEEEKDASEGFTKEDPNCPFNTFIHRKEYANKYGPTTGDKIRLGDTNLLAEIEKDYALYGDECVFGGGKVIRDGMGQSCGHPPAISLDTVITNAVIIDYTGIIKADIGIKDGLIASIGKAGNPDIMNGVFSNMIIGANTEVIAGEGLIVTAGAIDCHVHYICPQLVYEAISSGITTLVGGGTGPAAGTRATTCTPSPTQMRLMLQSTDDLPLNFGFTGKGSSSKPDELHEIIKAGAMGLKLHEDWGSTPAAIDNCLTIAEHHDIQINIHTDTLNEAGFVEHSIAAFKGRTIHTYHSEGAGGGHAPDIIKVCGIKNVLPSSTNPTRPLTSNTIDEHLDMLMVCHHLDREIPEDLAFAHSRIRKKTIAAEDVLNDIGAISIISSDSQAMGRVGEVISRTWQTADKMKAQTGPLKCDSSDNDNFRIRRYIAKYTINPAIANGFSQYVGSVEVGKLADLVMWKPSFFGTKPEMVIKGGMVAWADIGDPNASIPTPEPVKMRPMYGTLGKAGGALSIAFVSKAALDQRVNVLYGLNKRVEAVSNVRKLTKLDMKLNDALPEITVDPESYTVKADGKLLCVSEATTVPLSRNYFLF
MAL12: Alpha-glucosidase MAL12 (MAL12, Saccharomyces cerevisiae S288c, UniProt P53341)
Chain of UniProt P53341 (whole entry, looked up): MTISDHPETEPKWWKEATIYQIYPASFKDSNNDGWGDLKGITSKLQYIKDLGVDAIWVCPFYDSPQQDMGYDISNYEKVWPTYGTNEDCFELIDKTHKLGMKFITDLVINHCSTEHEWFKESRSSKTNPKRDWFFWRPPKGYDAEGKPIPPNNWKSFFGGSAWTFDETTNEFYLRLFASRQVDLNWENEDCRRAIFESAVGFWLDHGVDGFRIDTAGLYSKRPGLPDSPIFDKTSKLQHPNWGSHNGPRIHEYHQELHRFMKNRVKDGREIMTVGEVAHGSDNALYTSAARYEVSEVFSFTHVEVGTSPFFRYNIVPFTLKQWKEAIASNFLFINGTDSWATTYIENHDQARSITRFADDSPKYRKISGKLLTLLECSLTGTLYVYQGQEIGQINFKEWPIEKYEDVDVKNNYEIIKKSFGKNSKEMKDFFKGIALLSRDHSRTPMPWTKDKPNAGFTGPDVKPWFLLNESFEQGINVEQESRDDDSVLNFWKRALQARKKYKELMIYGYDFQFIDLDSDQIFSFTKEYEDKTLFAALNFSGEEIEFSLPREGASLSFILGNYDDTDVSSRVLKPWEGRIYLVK
crk3 with CYC6: crk3, with CYC6 (Leishmania mexicana, UniProt O15851)
Chain of UniProt O00408 (whole entry, looked up): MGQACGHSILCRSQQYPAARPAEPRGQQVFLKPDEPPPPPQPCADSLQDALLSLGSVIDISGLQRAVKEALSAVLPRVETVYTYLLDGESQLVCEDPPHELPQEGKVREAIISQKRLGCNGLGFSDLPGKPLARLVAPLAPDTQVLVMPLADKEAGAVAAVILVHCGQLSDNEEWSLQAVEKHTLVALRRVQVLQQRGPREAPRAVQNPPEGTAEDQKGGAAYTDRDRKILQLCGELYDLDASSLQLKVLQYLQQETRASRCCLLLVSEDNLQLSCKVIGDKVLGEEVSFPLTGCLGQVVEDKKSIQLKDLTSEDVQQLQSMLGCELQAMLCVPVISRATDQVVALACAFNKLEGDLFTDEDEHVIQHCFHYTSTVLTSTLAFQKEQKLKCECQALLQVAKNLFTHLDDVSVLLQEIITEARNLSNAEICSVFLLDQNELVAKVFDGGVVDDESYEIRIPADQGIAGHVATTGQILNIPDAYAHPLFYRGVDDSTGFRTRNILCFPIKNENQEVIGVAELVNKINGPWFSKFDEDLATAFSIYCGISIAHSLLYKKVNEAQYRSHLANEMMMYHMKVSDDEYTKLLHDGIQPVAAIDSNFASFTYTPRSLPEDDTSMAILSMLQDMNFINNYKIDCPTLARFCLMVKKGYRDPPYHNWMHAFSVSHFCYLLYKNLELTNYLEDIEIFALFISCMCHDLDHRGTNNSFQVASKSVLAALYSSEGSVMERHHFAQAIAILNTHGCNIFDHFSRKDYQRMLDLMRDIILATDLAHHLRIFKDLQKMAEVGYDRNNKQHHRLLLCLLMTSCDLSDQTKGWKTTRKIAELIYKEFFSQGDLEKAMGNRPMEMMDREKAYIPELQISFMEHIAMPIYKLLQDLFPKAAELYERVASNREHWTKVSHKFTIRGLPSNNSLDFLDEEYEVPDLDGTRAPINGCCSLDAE
Chain of UniProt Q8BUE4 (whole entry, unmodified, looked up): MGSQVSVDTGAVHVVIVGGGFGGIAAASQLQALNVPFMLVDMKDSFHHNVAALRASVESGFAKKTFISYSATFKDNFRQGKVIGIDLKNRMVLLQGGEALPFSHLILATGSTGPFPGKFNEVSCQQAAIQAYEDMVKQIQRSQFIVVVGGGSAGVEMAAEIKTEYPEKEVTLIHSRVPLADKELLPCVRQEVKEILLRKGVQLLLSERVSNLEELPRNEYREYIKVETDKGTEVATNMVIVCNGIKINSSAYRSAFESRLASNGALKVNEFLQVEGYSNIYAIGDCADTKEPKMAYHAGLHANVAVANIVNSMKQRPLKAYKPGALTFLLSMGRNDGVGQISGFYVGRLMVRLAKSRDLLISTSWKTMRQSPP
Chain of UniProt O43318 (whole entry, looked up): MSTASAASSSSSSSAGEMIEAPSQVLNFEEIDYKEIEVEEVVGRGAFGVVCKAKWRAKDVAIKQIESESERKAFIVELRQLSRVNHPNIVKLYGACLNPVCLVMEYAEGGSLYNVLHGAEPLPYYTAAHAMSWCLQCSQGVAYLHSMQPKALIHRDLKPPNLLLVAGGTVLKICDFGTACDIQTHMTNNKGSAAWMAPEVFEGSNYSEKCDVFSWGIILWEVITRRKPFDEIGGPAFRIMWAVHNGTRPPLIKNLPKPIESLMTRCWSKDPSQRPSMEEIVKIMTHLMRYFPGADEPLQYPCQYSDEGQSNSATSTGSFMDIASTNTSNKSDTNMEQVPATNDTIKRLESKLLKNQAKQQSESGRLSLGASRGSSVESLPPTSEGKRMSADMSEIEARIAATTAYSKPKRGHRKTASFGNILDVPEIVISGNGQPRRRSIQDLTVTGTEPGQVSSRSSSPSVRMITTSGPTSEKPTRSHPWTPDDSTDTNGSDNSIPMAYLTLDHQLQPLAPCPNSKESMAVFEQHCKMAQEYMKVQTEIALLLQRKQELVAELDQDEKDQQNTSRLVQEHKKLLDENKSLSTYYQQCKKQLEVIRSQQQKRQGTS
Chain of UniProt Q9UBE0 (whole entry, looked up): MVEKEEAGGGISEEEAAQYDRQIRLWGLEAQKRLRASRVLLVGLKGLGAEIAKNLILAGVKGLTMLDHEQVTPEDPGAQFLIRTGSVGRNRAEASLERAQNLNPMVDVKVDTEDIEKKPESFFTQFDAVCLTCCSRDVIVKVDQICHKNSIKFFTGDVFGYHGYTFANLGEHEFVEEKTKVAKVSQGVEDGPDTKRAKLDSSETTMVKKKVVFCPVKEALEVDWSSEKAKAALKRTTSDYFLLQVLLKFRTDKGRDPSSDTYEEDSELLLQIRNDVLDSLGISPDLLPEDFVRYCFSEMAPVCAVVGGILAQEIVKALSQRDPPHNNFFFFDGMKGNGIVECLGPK
Chain of UniProt Q14123 (whole entry, looked up): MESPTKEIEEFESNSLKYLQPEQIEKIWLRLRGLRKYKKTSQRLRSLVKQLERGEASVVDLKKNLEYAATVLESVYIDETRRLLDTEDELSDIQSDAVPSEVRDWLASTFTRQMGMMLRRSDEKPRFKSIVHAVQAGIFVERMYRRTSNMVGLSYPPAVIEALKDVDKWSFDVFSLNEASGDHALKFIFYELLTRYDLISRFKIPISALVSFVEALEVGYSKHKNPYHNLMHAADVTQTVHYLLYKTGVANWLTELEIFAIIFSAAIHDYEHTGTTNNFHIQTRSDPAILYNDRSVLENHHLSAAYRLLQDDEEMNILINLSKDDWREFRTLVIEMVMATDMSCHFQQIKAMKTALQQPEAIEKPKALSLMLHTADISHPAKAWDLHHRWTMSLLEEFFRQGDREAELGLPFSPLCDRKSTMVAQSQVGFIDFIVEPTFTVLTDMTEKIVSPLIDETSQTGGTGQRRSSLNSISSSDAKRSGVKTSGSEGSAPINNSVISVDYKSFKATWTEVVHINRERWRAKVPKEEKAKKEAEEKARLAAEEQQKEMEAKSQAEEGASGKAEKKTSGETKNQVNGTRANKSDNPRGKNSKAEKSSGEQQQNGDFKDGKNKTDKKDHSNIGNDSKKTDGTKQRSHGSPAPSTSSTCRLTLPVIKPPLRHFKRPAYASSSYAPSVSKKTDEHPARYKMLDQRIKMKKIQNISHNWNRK
Chain of UniProt O00141 (whole entry, unmodified, looked up): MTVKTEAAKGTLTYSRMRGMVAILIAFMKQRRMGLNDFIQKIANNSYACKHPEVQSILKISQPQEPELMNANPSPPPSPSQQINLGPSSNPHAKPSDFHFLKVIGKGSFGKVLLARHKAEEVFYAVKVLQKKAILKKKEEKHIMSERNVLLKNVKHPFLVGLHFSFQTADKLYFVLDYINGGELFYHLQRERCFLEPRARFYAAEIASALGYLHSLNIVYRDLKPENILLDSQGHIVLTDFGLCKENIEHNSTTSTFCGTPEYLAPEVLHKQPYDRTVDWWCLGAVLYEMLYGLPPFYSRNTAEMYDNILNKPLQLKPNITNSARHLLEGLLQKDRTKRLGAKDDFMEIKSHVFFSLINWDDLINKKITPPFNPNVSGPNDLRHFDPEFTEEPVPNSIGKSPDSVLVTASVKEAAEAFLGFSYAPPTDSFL

Compound	target	assay	system	conditions	IC50 [µM]
C[C@H](c1ccccc1)N1C(=O)C2=Nc3cccc(Cl)c3CN2C1=S	Tyrosine-protein kinase Fer (FER, Homo sapiens, UniProt P16591)	enzyme activity, inhibitor			0.487
CCN(CC)Cc1ccc2cc(NC(=O)Nc3ccc(C(=O)NO)cc3)ccc2c1	SNCA pre-formed fibrils	binding to RAGE, inhibitor, ELISA		added: FLAG-α-syn PFFs 100 nM	4.95
CC(C)C[C@H](NC(=O)[C@H](Cc1ccc(CN)cc1)NC(=O)[C@H](Cc1ccccc1)N=[N+]=[N-])C(=O)N[C@@H](CC1CCCC2CCCCC21)C(=O)[C@@]1(C)CO1 (stereo partly drawn)	Proteasome subunit beta type-10 (Homo sapiens, UniProt P40306)	enzyme activity, inhibitor		lysate	0.0955
O=C(Nc1cc(Cl)ccc1O)c1cnc(-c2ccncc2)s1	Serine/threonine-protein kinase Sgk1 (SGK1, Homo sapiens, UniProt O00141, S422D)	kinase activity, inhibitor			12.1 ± 1.11
Cc1[nH]c(C)c(S(=O)(=O)Nc2cccc(Cl)c2)c1C(=O)N1CCCC1	D(2) dopamine receptor (DRD2, Homo sapiens, UniProt P14416)				> 100
CN1CCC(n2cc(-c3cccc4cc(NC(=O)Nc5ccc(C(=O)NO)cc5)ccc34)cn2)CC1	SNCA pre-formed fibrils	binding to mouse LAG3 D1, inhibitor, ELISA		added: FLAG-α-syn PFFs 100 nM	1.04
Clc1ccccc1-c1cc(CN2c3ccccc3C=Cc3ccccc32)on1	Urease	enzyme activity, inhibitor			> 27
COc1ccc(OC)c(CN2CCN(Cc3cc(OC)c(O)c(OC)c3)CC2)c1	Alpha-synuclein (SNCA, Homo sapiens, UniProt P37840)	fibril growth, ELISA and FlAsH		20 h, added: 6 µM monomer	4 ± 2
Cc1ccc(-c2cc(CN3c4ccccc4C=Cc4ccccc43)on2)cc1	Urease	enzyme activity, inhibitor			> 27
CC(C)[C@H](NC(=O)[C@H](Cc1ccccc1)NC(=O)[C@H](CO)NC(=O)[C@@H](N)Cc1ccc(O)cc1)C(=O)N[C@@H](CO)C(=O)NCC(=O)NCC(=O)O	SUMO-activating enzyme (Homo sapiens, UniProt Q9UBE0+Q9UBT2)	SUMO thioester formation, Western blot		10 min, added: 1 µM SUMO	125
O=C(Nc1ccc(C(=O)NO)cc1)OCc1ccc2ccccc2c1	SNCA pre-formed fibrils	binding to RAGE, inhibitor, ELISA		added: FLAG-α-syn PFFs 100 nM	4.38
CC[C@H](C)n1cc(C)c2c(C(=O)NCc3c(C)cc(C)[nH]c3=O)cc(-c3ccc(N4CCN(C(=O)CCOCCOCCOCCOCCNC(=O)CCCC[C@@H]5SC[C@@H]6NC(=O)N[C@@H]65)CC4)nc3)cc21	Histone-lysine N-methyltransferase EZH2, PRC2 pentameric complex (EZH2, Homo sapiens, UniProt Q15910)	enzyme activity, inhibitor		added: H3K27me3 activating peptide	0.0032
CCOc1cc(CN2CC3(CC(N4CCC(C(=O)O)CC4)=NO3)C2)cc(OCC)c1-c1ccc(F)cc1	Somatostatin receptor type 5 (SSTR5, Homo sapiens, UniProt P35346, F201A)	cAMP level, antagonist, GloSensor	AD293	F201A mutant, bandwidth 5.38, added: CST17 EC80 and forskolin	1.05
CC(C)(C)c1ccc(NC(=O)c2cnn(-c3ccc([N+](=O)[O-])cc3)c2C(F)(F)F)cc1	Prostaglandin G/H synthase 1 (PTGS1, Ovis aries, UniProt P05979)	enzyme activity, inhibitor			6.62
CC1(C)C(=O)N=C2C1=C(O)C(=O)c1ccccc12	Histone-lysine N-methyltransferase SETD2 (SETD2, Homo sapiens, UniProt Q9BYW2)	enzyme activity, inhibitor			1
COc1cc(C(c2c(O)c3ccccc3oc2=O)c2c(O)c3ccccc3oc2=O)ccc1OCc1cn(CC(=O)Nc2ccccc2Br)nn1	MAL12	enzyme activity, inhibitor			28.8
Cc1ccc(CNc2nc3c(cnn3C(C)(C)C)c(=O)n2Cc2cccc(F)c2)cn1	Dual specificity calcium/calmodulin-dependent 3',5'-cyclic nucleotide phosphodiesterase 1C (PDE1C, Homo sapiens, UniProt Q14123)	enzyme activity, inhibitor, radiometric			0.0045
Cc1cc(C)nc(NC(=S)N2CCN(c3ccncc3)CC2)c1	Peroxisomal multifunctional enzyme type 2 (HSD17B4, Homo sapiens, UniProt P51659)	enzyme activity, inhibitor			> 57

Compound	target	assay	system	conditions	IC50 [µM]
CC(C)(COC(=O)/C=C/c1ccc([N+](=O)[O-])cc1)CC1=C(O)C(=O)c2ccccc2C1=O	MAL12	enzyme activity, inhibitor			31.9
Cc1cc(C(=O)Nc2nc3cccc(C)c3n2[C@H]2CCCCN(C(=O)/C=C/CN(C)C)C2)ccn1	Dual specificity protein kinase CLK1 (CLK1, Homo sapiens, UniProt P49759)	ADP-Glo		10 min pre-incubation, added: ATP 10 µM	0.825
CC1CC=CCCC=CC(=O)Cc2cc(O)cc(O)c2C(=O)O1 (stereo not drawn)	Mitogen-activated protein kinase kinase kinase 7 (MAP3K7, Homo sapiens, UniProt O43318)	enzyme activity, inhibitor, ATP luminescence			> 10
COc1cc(OC)c(/N=N/c2cc(C(=O)NO)ccc2OC)c(OC)c1	Urease	enzyme activity, inhibitor, absorbance		pH 7.3	> 512
C[C@@H](Nc1nc2c(cnn2C(C)(C)C)c(=O)n1Cc1cccc(F)c1)c1ccc(Cl)cc1	cGMP-dependent 3',5'-cyclic phosphodiesterase (PDE2A, Homo sapiens, UniProt O00408)	enzyme activity, inhibitor			3.15
Clc1ccc(-c2cc(CN3c4ccccc4C=Cc4ccccc43)on2)cc1	Urease	enzyme activity, inhibitor			7.32
Cc1nn(-c2cccc(N)c2)c(=O)c2cnc(Nc3ccc(N4CCNCC4)cc3)nc12	Platelet-derived growth factor receptor beta (PDGFRB, Homo sapiens, UniProt P09619)	enzyme activity, inhibitor			2.23
CC(=O)c1cnc2ccc(-c3cc(Cl)c(O)c(Cl)c3)nc2c1N[C@H]1CC[C@H](CN(C)C)CC1	Receptor-like protein kinase FERONIA (FER, Arabidopsis thaliana, UniProt Q9SCZ4, M613A)	kinase activity, inhibitor, ADP-Glo		60 min, added: 50 µM ATP	1.91
CC(=O)Nc1cc(Cc2ccccc2)[nH]n1	crk3 with CYC6	enzyme activity, inhibitor, radiometric		added: Leishmania major CYC6 cyclin, 1 µM ATP	64
CC(C)c1nc(S)n(C)n1	Tyrosine-protein kinase SYK, tandem SH2 domains (SYK, Homo sapiens, UniProt P43405)	binding, inhibitor, TR-FRET		added: FITC-FCER1G phospho-ITAM peptide	5.41 ± 0.06
O=C(Nc1cc(C2CC2)[nH]n1)c1ccccc1	crk3 with CYC6	enzyme activity, inhibitor, radiometric		added: Leishmania major CYC6 cyclin, 1 µM ATP	1.7
Nc1ncc2c(n1)-c1c([nH]c3ccc(C#CC4CC4)cc13)CCCC2	Serine/threonine-protein kinase PAK 2 (PAK2, Homo sapiens, UniProt Q13177)	enzyme activity, inhibitor, radiometric			> 10
O=C1Nc2c(Br)cccc2/C1=C1/Nc2ccccc2C1=NO	Tyrosine-protein kinase receptor UFO (AXL, Homo sapiens, UniProt P30530)				> 10
CCn1nc(Cl)c2c1-c1cnc(N)c(c1)O[C@H](C)c1cc(F)ccc1-c1nn(C)cc1C2	Ephrin type-A receptor 7 (EPHA7, Homo sapiens, UniProt Q15375)	enzyme activity, inhibitor, radiometric			0.475
Cc1cccc(-c2cnn3ccc(Nc4ccc(N5CCOCC5)cc4)nc23)c1	crk3 with CYC6	enzyme activity, inhibitor, radiometric		added: Leishmania major CYC6 cyclin, 1 µM ATP	2.6
CN1CCCN(c2cnc3c(cc(C(=O)NCc4ccc(Cl)cc4)c(=O)n3CC(=O)N3CC(C)(F)C3)n2)C1=O	DNA polymerase catalytic subunit (Human cytomegalovirus, UniProt P08546)	enzyme activity		at least duplicate	4.1
COc1ccc(N2CCN(Cc3cn4c(-c5ccc(Br)cc5)nnc4s3)CC2)cc1	Aifm2 (Mus musculus, UniProt Q8BUE4, A354T/L360F)	enzyme activity, inhibitor		1 h, added: CoQ1, NADPH	0.552
COc1cc(OC)c2c(=O)cc(-c3cc(C)c(OCCCN4CCN(C)CC4)c(C)c3)oc2c1	Bromodomain-containing protein 3, BD1 (BRD3, Homo sapiens, UniProt Q15059)	cell-free assay, TR-FRET			1.72

A few entries again:
Compound	target	assay	system	conditions	IC50 [µM]
CC(C)(COC(=O)/C=C/c1ccc([N+](=O)[O-])cc1)CC1=C(O)C(=O)c2ccccc2C1=O	MAL12	enzyme activity, inhibitor			31.9
Cc1cc(C(=O)Nc2nc3cccc(C)c3n2[C@H]2CCCCN(C(=O)/C=C/CN(C)C)C2)ccn1	Dual specificity protein kinase CLK1 (CLK1, Homo sapiens, UniProt P49759)	ADP-Glo		10 min pre-incubation, added: ATP 10 µM	0.825
